Measurements gathered from unrelated publications.
Protocols differ between the studies behind these lines. Numbers after ± are the reported error. In brackets after ≈: the same amount, converted by molar mass.

SMILES = O=C(c1ccc(F)cc1)C1CCN(C2Cc3c(cccc3OCC[18F])CC2O)CC1 (single isomer, unassigned; (-)); system = Sprague-Dawley rat, male, lung; setting = intravenous, dose not given, 60 min; endpoint = tissue uptake; value = 0.738 ± 0.087 %ID/g
SMILES = CC[C@H](C)[C@@H]1NC(=O)[C@H](CCCCN)NC(=O)[C@@H](NC(=O)[C@H](C)NC(=O)[C@@H](NC(=O)[C@H](CC(C)C)NC(=O)[C@H](CC(N)=O)NC(=O)[C@@H](NC(=O)CNC(=O)[C@H](CC(C)C)NC(=O)[C@H](CCCNC(=N)N)NC(=O)[C@H](C)NC(=O)[C@H](CC(C)C)NC(=O)[C@H](CC(=O)O)NC(=O)[C@H](CCCCN)NC(=O)CNC(=O)[C@H](CC(C)C)NC(=O)CNC(=O)[C@H](CCCCN)NC(=O)[C@H](CO)NC(=O)[C@H](C)NC(=O)[C@H](Cc2ccccc2)NC(=O)[C@H](CCCCN)NC(=O)[C@H](C)NC(=O)[C@@H](NC(=O)CNC(=O)[C@H](CCCNC(=N)N)NC(=O)[C@H](Cc2ccccc2)NC(=O)[C@@H](NC(=O)[C@H](CO)NC(=O)[C@H](CO)NC(=O)[C@H](Cc2ccccc2)NC(=O)CN)[C@@H](C)CC)C(C)C)C(C)C)C(C)C)CSSC[C@@H](C(=O)O)NC(=O)[C@H](CCC(N)=O)NC(=O)[C@H](CCCCN)NC(=O)[C@H](CO)NC1=O; system = horse erythrocytes; setting = above 16 µM; endpoint = haemolysis; value = ~16.2%
SMILES = CCNc1cc2[o+]c3cc(NCC)c(C)cc3c(-c3ccccc3C(=O)OCCOCC[18F])c2cc1C; system = rat; setting = 15 min; how to read = relative to: heart over liver; endpoint = tissue uptake ratio; value = 1.3
SMILES = Cc1ccc(/C=C/C(=O)O)cc1-c1cc2c(cc1C)C(C)(C)CCC2(C)C; system = rat, Sprague-Dawley, male, serum; setting = oral, 100 mg/kg, 24 h; endpoint = triglycerides; value = 109 ± 16.4 ng/dL
SMILES = CC1(O)CC23CC(O)C4(O)C(C5OC5C4(C)C)C(C)(O)C2CCC1C3O (stereo not shown); test = dialysis; system = PBS; setting = 24 h, pH 6.8, 37 °C; endpoint = cumulative release; value = 95%
SMILES = CCN(CC)CCOc1ccc(-c2nnn(Cc3ccc(OC)cc3)c2N)cc1; system = CD-1 mice, plasma; setting = 120 min; endpoint = stability; value = stable
SMILES = CCCCCCCC(=O)OC[C@H](NC(=O)[C@H](CO)NC(=O)CN)C(=O)N[C@@H](Cc1ccccc1)C(=O)N[C@@H](CC(C)C)C(=O)N[C@@H](CO)C(=O)N1CCC[C@H]1C(=O)N[C@@H](CCC(=O)O)C(=O)N[C@@H](Cc1cnc[nH]1)C(=O)N[C@@H](CCC(N)=O)C(=O)N[C@@H](CCCNC(=N)N)C(=O)N[C@H](C(=O)N[C@@H](CCC(N)=O)C(=O)N[C@@H](CCC(N)=O)C(=O)N[C@@H](CCCNC(=N)N)C(=O)N[C@@H](CCCCN)C(=O)N[C@@H](CCC(=O)O)C(=O)N[C@@H](CO)C(=O)N[C@@H](CCCCN)C(=O)N[C@@H](CCCCN)C(=O)N1CCC[C@H]1C(=O)N1CCC[C@H]1C(=O)N[C@@H](C)C(=O)N[C@@H](CCCCN)C(=O)N[C@@H](CC(C)C)C(=O)N[C@@H](CCC(N)=O)C(=O)N1CCC[C@H]1C(=O)N[C@@H](CCCNC(=N)N)C(=O)O)C(C)C; system = human, plasma; setting = intravenous infusion, 5 µg/kg/h; how to read = relative to: 1 µg/kg/h dose; endpoint = AUC fold change; value = 6 fold
SMILES = O=c1oc2cc(O)ccc2c2ccccc12; test = potentiometric titration; system = water, extrapolated from methanol/water; setting = 25 °C; endpoint = pKa1; value = 8.53
SMILES = CCN(Cc1ccccc1)C(=O)CCc1nc(CN2CCN(C(=O)Cc3ccc(OC)c(OC)c3)CC2)no1; system = rat, liver; setting = intravenous, 1 mg/kg, 30 min, single dose; endpoint = concentration; value = 16 ng/g
SMILES = CSCC[C@@H]1NC(=O)[C@@H]2CSSC[C@H](NC(=O)[C@H](CO)NC(=O)[C@H](C)N)C(=O)N[C@@H](CCCNC(=N)N)C(=O)N[C@@H]([C@@H](C)O)C(=O)N3CCC[C@H]3C(=O)N[C@@H](CCCCN)C(=O)N[C@@H](CC(=O)O)C(=O)N[C@H]3CSSC[C@H](NC(=O)[C@H](CCCCN)NC(=O)[C@H](CCCNC(=N)N)NC(=O)[C@H](CC(N)=O)NC1=O)C(=O)N[C@@H](CCCCN)C(=O)N[C@H]1CSSC[C@H](NC(=O)[C@@H]4CCCN4C(=O)[C@H](CC(=O)O)NC(=O)[C@H](C)NC3=O)C(=O)N[C@@H](C)C(=O)N[C@@H](CCCCN)C(=O)N[C@@H](CCC(=O)O)C(=O)N[C@@H]([C@@H](C)O)C(=O)NCC(=O)N[C@@H](CSSC[C@@H](C(N)=O)NC(=O)[C@H](CCCNC(=N)N)NC(=O)[C@H](CC(N)=O)NC1=O)C(=O)N1CCC[C@H]1C(=O)N[C@@H](Cc1ccc(O)cc1)C(=O)NCC(=O)N[C@@H](CCCCN)C(=O)N2; system = DA rat, pristane-induced arthritis, serum; setting = subcutaneous, 0.1 mg/kg every other day, end of 21-day trial; endpoint = alkaline phosphatase; value = 57 U/L
SMILES = O=c1cc(-c2ccccc2)oc2c(Br)c(O)c(O)c(O)c12; system = C57BL/6 mouse, plasma; setting = po, 50 mg/kg; endpoint = Ctrough; value = 7.2 ± 2.6 ng/mL
SMILES = CN[C@](C)(C[18F])C(=O)O; system = SCID mouse A549 xenograft, brain; setting = 15 min, post injection; endpoint = tissue uptake; value = 0.4 ± 0.04 %ID/g
SMILES = O=C(Cc1ccc2ccccc2c1)N[C@H](Cc1ccccc1)C(=O)N[C@H](Cc1ccc(O)cc1)C(=O)N[C@H](Cc1ccccc1)C(=O)N[C@H](Cc1ccc(OP(=O)(O)O)cc1)C(=O)O; test = substrate; system = SAOS-2 cell lysate; setting = 500 µM, 1 h, pH 7.4, 37 °C; endpoint = dephosphorylation; value = > 40%
SMILES = N=C(N)NCc1ccc(C(=O)NCCCC[C@H](NC(=O)N[C@@H](CCC(=O)O)C(=O)O)C(=O)O)cc1[131I]; system = SCID mouse, PC-3 xenografts, kidneys; setting = 2 h; endpoint = tissue uptake; value = 147 ± 14 %ID/g
SMILES = CC1(C)C(=O)N(c2ccc(C#N)c(C(F)(F)F)c2)C(=S)N1c1ccc(C(=O)O)c(F)c1; system = human, male, plasma; setting = oral, 160 mg, single dose, after high-fat meal; endpoint = MRT; value = 13.9 ± 2.34 days
SMILES = C=C1C(=O)O[C@@H]2C[C@H](C)[C@@H]3C[C@H](O[Si](c4ccccc4)(c4ccccc4)C(C)(C)C)[C@H](O)[C@@]3(C)C[C@H]12; test = propidium iodide flow cytometry; system = primary splenocytes, BALB/c mouse; setting = 48 h, 10% fetal calf serum; endpoint = CC50; value = 72 ± 1.5 µg/mL (≈ 143 µM)
SMILES = [2H]C([2H])([2H])C([2H])([2H])C([2H])([2H])OC(C(=O)OC1CCNCC1)(c1ccccc1)c1ccccc1; system = healthy Japanese male; setting = oral, 8 to 18 mg once daily, 16 days; endpoint = adverse drug reaction incidence; value = 2.9%
SMILES = CC[C@H](C)[C@@H]1NC(=O)[C@H](CCCCN)NC(=O)[C@H](CCCCN)NC(=O)[C@H](Cc2ccc(O)cc2)NC(=O)[C@H](CC(C)C)NC(=O)[C@@H]2CCCN2C(=O)[C@H](C)NC(=O)CNC(=O)CNC(=O)[C@H](CO)NC(=O)CNC(=O)CNC(=O)[C@H](CO)NC(=O)[C@H](CCC(=O)O)NC(=O)[C@H](CC(C)C)NC(=O)[C@H](CC(C)C)NC(=O)[C@H](CCCCN)NC(=O)[C@H](CCCCN)NC(=O)[C@H]([C@@H](C)CC)NC(=O)[C@H]([C@@H](C)CC)NC(=O)[C@H](CCCCN)NC(=O)[C@H](CCCCN)NC(=O)[C@H](Cc2ccc(O)cc2)NC(=O)[C@H](CC(C)C)NC(=O)[C@@H]2CCCN2C(=O)CNC(=O)CNC(=O)[C@@H](NC(=O)CN)CSSC[C@@H](C(N)=O)NC(=O)[C@H](CC(C)C)NC(=O)[C@H](CCCCN)NC(=O)[C@H](CCCCN)NC(=O)[C@H]([C@@H](C)CC)NC1=O; test = hemolysis; system = uninfected human erythrocytes; setting = 1 h; endpoint = HC10; value = 25.7 ± 2.1 µM
SMILES = Cc1ccc(OCC(=O)N(Cc2cccs2)c2ccn[nH]2)cc1; system = Crl:CD(SD) rat, bred female; setting = oral, 1000 mg/kg/day, mean per litter, developmental toxicity; endpoint = corpora lutea count; value = 17.5
SMILES = COc1ccc2sc3c(c2c1)SCCNC3=O; system = mouse; setting = intravenous, 25 mg/kg; endpoint = Vd; value = ~1.94 L/kg
SMILES = CN(C)C(CNC(=O)Nc1cc(C(F)(F)F)ccc1N1CCOCC1)c1ccncc1 (stereo not shown); system = mouse, serum; setting = intraperitoneal, 180 mg/kg single dose; endpoint = serum chloride; value = 111 mmol/L
SMILES = O=C(O)c1ccc([S][Au][PH](c2ccccc2)(c2ccccc2)[c-]2cccc2)cc1.[Fe+2].c1cc[cH-]c1; system = DMSO/water; setting = 5 × 10 µM; endpoint = pH; value = 4.99
SMILES = C#Cc1c(F)ccc2cc(O)cc(-c3ncc4c(N5CC6CCC(C5)N6C(=O)OCc5ccc(NC(=O)OCCCC)cc5)nc(OC[C@@]56CCCN5C[C@H](F)C6)nc4c3F)c12; test = chemical stability; system = simulated intestinal fluid; setting = 1 µM, 30 min; endpoint = compound remaining; value = 90.4%
SMILES = CC[C@H](C)C(=O)N1CCC(NC(=O)Nc2ccc(OC(F)(F)F)c(F)c2)CC1; system = healthy volunteers; setting = oral, 24 mg single dose; endpoint = subjects with related TEAE; value = 0%
SMILES = C/C=C/C=C/C/C=C/CCCCCCCc1cccc(O)c1O; system = female Kunming mice, tumour-bearing, heart; setting = intravenous, 10 mg/kg, 0.5 h; endpoint = tissue concentration; value = 20800 ± 2050 ng/g
SMILES = COC(=O)C[C@](O)(CCCC(C)(C)OC(C)=O)C(=O)O[C@@H]1C(OC)=C[C@]23CCCN2CCc2cc4c(cc2[C@H]13)OCO4; system = CD1 mouse, heart; setting = subcutaneous, 1 mg/kg, 8 h, below quantification limit 1.00 ng/mL; endpoint = tissue concentration; value = not detected
SMILES = CC[C@H](C)[C@H](NC(=O)[C@H](CC(=O)O)NC(=O)[C@H](CO)NC(=O)[C@H](CCC(N)=O)NC(=O)[C@H](C)NC(=O)[C@H](CC(=O)O)NC(=O)[C@H](CCC(=O)O)NC(=O)[C@H](Cc1c[nH]cn1)NC(=O)[C@H](Cc1ccc(O)cc1)NC(=O)[C@H](C)NC(=O)[C@H](CC(=O)O)NC(=O)[C@H](CCC(=O)O)NC(=O)[C@H](Cc1c[nH]cn1)NC(=O)[C@H](Cc1ccc(O)cc1)NC(=O)[C@H](C)NC(=O)[C@H](CC(=O)O)NC(=O)[C@H](CCC(=O)O)NC(=O)[C@H](Cc1c[nH]cn1)NC(=O)[C@H](Cc1ccc(O)cc1)NC(=O)[C@H](C)NC(=O)[C@H](CC(=O)O)NC(=O)[C@H](CCC(=O)O)NC(=O)[C@H](Cc1c[nH]cn1)NC(=O)[C@H](Cc1ccc(O)cc1)NC(=O)[C@H](C)NC(=O)[C@H](CC(=O)O)NC(=O)[C@H](CCC(=O)O)NC(=O)[C@H](Cc1c[nH]cn1)NC(=O)[C@@H](N)Cc1ccc(O)cc1)C(=O)N[C@H](C(=O)N[C@@H](C)C(=O)N[C@@H](Cc1c[nH]cn1)C(=O)N[C@@H](CC(C)C)C(=O)N[C@@H](CC(C)C)C(=O)O)C(C)C; system = mouse SN model, blood; setting = dose not given; endpoint = BA share of white cells; value = 2.4 ± 0.6%
SMILES = O=c1c2cc(Cl)ccc2sc2c(NCc3ccccc3)nc3ccccc3c12; system = BALB/c nude mice; setting = i.p., 5 mg/kg; endpoint = body weight gain; value = 4.32 ± 0.93%
SMILES = CC(C)[C@H](NC(=O)CNC(=O)[C@H](CCC(N)=O)NC(=O)[C@H](C)N)C(=O)O; test = any adverse event; system = human; setting = 30 mg/kg, 3 days, thrice daily dosing; endpoint = subjects with adverse events; value = 71.4%
SMILES = [11CH3]Oc1ccc(C(=O)Nc2cc(-c3ccc(I)cc3)no2)cc1; system = mouse, blood; setting = intravenous, 20 min; endpoint = parent compound fraction; value = 31 ± 11%
SMILES = CC(=O)c1ncn2c(=O)n(C)nnc12; system = mouse CD-1 male, liver microsomes; setting = 50 µM, 2 h, pH 7.4; how to read = relative to: time zero; endpoint = remaining compound; value = 70 ± 1%

Excerpt of the above:
SMILES = Cc1ccc(OCC(=O)N(Cc2cccs2)c2ccn[nH]2)cc1; system = Crl:CD(SD) rat, bred female; setting = oral, 1000 mg/kg/day, mean per litter, developmental toxicity; endpoint = corpora lutea count; value = 17.5
SMILES = O=C(Cc1ccc2ccccc2c1)N[C@H](Cc1ccccc1)C(=O)N[C@H](Cc1ccc(O)cc1)C(=O)N[C@H](Cc1ccccc1)C(=O)N[C@H](Cc1ccc(OP(=O)(O)O)cc1)C(=O)O; test = substrate; system = SAOS-2 cell lysate; setting = 500 µM, 1 h, pH 7.4, 37 °C; endpoint = dephosphorylation; value = > 40%
SMILES = CCNc1cc2[o+]c3cc(NCC)c(C)cc3c(-c3ccccc3C(=O)OCCOCC[18F])c2cc1C; system = rat; setting = 15 min; how to read = relative to: heart over liver; endpoint = tissue uptake ratio; value = 1.3
SMILES = O=c1cc(-c2ccccc2)oc2c(Br)c(O)c(O)c(O)c12; system = C57BL/6 mouse, plasma; setting = po, 50 mg/kg; endpoint = Ctrough; value = 7.2 ± 2.6 ng/mL
